Measured values gathered from unrelated publications.
A part holds a random share of what one study measured.

Series 1 — method: universal PBM; form: double-stranded DNA, one strand shown; matrix: in vitro; concentration: not given; direction: higher = stronger binding
Target: Sal-like protein 4, full length isoform B (SALL4, Homo sapiens, UniProt Q9UJQ4-2, residues 1-616)
Notes: 8-mer, flanks averaged, mean of replicates
With `AGAGGGCG` the E-score was -0.24.
The E-score of `TATCTGAA` is reported as 0.141.
For `AATGATGG`, the E-score was 0.15.
`CGACATCA` gave an E-score of -0.0109.
`AAACGCCG` has an E-score of -0.0473.
With `CGGCAAAG` the E-score was -0.232.

Series 2 — method: RNA Bind-n-Seq; form: RNA; matrix: in vitro; concentration: 365 nM; baseline: no-protein control; direction: higher = stronger binding
Target: RNA binding protein fox-1 homolog 2, RRM domain, GST-SBP tag (RBFOX2, Homo sapiens, UniProt O43251-10, residues 100-194)
Notes: natural RNA segment, single round, ends assumed
Shared flanks, not repeated: GGGAGUUCUACAGUCCGACGAUC … UGGAAUUCUCGGGUGCCAA
Construct (chain): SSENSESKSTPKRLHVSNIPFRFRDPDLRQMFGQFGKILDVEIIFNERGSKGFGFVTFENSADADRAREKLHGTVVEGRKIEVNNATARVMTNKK
`AAGUCUGAUCUCCGCAGGAAACUCUUGUGAAGUAACUGGUGCCUGAGGUGCACUCAAGUGUGGGACUGAGCUUGGCUUCUGGCUCAGUUUCCAUUUUUUGGUCUGAAACU`: “RBNS enrichment (R)” 0.392.
Under “RBNS enrichment (R)”, `UUGUAUACAUAUAUCCUAAUACAAGAGUAGGAUAAGGUGGAAAUGUAAUGGCCUGAGGGAUGGUGAAGCAUUCUUUUAGUAUUUUUCAUCAUGUUGGGCUCCUAGAUUGU` is recorded as 0.543.
For `CCUUUGUUAGGAAAAAGCACAGCCUCAGAUGGAGGCAGCCUAAACUGUGUUCUUGUUUUGUUCAUGGUGUUUCUAAGCGUUUUGCUGAAGCUGCUCUCAGGCACCCCCUU`, “RBNS enrichment (R)” read 0.837.
`UUUUUAAAUAAAACCAUUCACAGUUUACUUUGUCUUGAUACCUUGGUUUGUCCCAGCUGAAGUGAAGCAAGAGAGUUUGAAUUAAUUUUUCCAUUAUAAUGUUUUCGCAU` — result for “RBNS enrichment (R)”: 0.857.
`CUCCCUUAAGAGUAUCACUGUUCUGAAGCUAAAAUGCUUCAGUCUCAAAUUUAGGGGCAAAGUGGAGACUGGAAGAAUUCUCCUUUCAGAAGAACCACGAGGCUCUGGCU`: “RBNS enrichment (R)” 0.241.
Under “RBNS enrichment (R)”, `CAGCAGAUUAUAAUCUUGUCAACAGUUCAUUGUCUCCUCUUAGUACCACCAGUCACCUGCAUCAUUCAUGCUAGAAGCUGUGUUCUAGCCAUGCAGUUACAUCUCUUUCU` is recorded as 0.448.

Series 3 — method: protein-binding microarray; form: double-stranded DNA, one strand shown; matrix: in vitro; concentration: 2200 nM top; notes: 60-bp whole probe; together with: salmon DNA 0.4 mg/ml; baseline: random background probes; direction: higher = stronger binding
Target: Interferon regulatory factor 7, full length, phosphomimetic (IRF7, Homo sapiens, UniProt Q92985, residues 1-503, S471D/S472D/S475D/S476D/S477D/S483D/S484D/S487D)
UniProt Q92985, sequence (whole entry, unmodified, looked up): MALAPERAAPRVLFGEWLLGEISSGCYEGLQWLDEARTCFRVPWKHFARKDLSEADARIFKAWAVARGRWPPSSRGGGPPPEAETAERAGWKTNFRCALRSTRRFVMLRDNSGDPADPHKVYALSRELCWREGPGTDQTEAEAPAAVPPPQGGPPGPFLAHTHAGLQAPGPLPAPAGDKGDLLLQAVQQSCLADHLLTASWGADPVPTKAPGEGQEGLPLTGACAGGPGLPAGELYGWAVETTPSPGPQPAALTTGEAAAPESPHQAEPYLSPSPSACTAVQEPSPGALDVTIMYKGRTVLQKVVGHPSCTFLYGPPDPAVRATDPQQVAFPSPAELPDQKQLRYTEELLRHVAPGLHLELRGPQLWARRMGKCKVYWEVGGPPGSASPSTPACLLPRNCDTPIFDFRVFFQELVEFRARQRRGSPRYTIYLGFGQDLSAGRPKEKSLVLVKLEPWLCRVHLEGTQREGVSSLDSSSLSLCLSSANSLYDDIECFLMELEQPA
Under “fitted relative affinity”, `GCCTAGCACAACGGTATCCTTATCCTGACGTGCTAGGTCTTGATTCGCTTGACGCTGCTG` is recorded as 0.883 z-score.
`GCCTAGCACTTAGGACTGGGGTATCAGTTAGTGCTAGTCTTGATTCGCTTGACGCTGCTG`: “fitted relative affinity” -0.546 z-score.
Under “fitted relative affinity”, `GCCTAGCACTTTTCATTTTTTTTCATCATGTGCTAGGTCTTGATTCGCTTGACGCTGCTG` is recorded as 3.69 z-score.
For `GCCTAGCACGATGGTTTCCTTATCCTGACGTGCTAGGTCTTGATTCGCTTGACGCTGCTG`, “fitted relative affinity” read 2.71 z-score.

Further values, each from its own experiment
`PhoQ, residues 284 288 289 292 302 303 TNSAEL` has a fold induction of 1.35 (PhoP, residues 12 14 15 18 19 HLGGL (Escherichia coli, UniProt P23836); Sort-seq, item: YFP reporter; E. coli; PhoQ-PhoP variant library, together with: 10 µM Mg2+; baseline: high Mg2+ state, higher = stronger signaling).

A few entries again (series 2):
`UUUUUAAAUAAAACCAUUCACAGUUUACUUUGUCUUGAUACCUUGGUUUGUCCCAGCUGAAGUGAAGCAAGAGAGUUUGAAUUAAUUUUUCCAUUAUAAUGUUUUCGCAU` — result for “RBNS enrichment (R)”: 0.857.
`CUCCCUUAAGAGUAUCACUGUUCUGAAGCUAAAAUGCUUCAGUCUCAAAUUUAGGGGCAAAGUGGAGACUGGAAGAAUUCUCCUUUCAGAAGAACCACGAGGCUCUGGCU`: “RBNS enrichment (R)” 0.241.
